Measurements gathered from unrelated publications.
Lines come from different studies, so protocols differ.
PLEKHA3: PLEKHA3 (Homo sapiens, UniProt Q9HB20)
Sequence of UniProt Q9HB20 (whole entry, looked up): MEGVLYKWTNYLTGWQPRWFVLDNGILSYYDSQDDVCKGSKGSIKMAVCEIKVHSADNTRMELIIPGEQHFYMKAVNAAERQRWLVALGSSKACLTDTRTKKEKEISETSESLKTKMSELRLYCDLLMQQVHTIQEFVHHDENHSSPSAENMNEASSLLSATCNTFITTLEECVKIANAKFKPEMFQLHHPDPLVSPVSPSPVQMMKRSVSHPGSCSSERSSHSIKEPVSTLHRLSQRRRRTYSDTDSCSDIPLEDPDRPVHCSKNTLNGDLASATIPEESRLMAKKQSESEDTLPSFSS
ADRA1B: Alpha-1B adrenergic receptor (ADRA1B, Homo sapiens, UniProt P35368)
Sequence of UniProt P35368 (whole entry, looked up): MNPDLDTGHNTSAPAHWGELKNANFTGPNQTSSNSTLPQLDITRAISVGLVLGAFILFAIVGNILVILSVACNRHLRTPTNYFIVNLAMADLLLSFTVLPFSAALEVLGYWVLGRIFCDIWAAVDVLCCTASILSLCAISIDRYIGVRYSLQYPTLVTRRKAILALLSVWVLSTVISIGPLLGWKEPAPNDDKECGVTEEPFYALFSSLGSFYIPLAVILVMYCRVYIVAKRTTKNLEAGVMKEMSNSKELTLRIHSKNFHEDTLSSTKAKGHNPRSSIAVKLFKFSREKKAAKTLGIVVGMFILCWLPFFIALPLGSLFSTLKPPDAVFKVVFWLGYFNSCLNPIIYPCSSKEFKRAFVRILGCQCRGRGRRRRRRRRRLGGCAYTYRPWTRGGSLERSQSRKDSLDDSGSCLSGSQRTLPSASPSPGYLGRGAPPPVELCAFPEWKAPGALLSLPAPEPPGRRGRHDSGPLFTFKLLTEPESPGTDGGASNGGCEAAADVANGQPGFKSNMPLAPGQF
HTR2B: 5-hydroxytryptamine receptor 2B (HTR2B, Homo sapiens, UniProt P41595)
Sequence of UniProt P41595 (whole entry, looked up): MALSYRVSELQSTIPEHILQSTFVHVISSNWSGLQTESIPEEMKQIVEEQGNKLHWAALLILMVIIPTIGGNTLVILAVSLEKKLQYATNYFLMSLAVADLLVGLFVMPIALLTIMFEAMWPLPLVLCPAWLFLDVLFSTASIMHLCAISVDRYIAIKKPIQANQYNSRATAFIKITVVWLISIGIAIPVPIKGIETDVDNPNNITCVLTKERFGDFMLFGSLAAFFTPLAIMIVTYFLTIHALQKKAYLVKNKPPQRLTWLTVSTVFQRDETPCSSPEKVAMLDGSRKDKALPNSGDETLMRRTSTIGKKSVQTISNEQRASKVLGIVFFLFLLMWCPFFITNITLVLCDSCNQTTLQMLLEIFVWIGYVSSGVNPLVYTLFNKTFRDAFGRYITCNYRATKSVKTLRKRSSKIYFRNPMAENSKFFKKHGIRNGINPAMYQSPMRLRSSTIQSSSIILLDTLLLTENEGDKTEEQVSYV
Sequence of UniProt P11712 (whole entry, looked up): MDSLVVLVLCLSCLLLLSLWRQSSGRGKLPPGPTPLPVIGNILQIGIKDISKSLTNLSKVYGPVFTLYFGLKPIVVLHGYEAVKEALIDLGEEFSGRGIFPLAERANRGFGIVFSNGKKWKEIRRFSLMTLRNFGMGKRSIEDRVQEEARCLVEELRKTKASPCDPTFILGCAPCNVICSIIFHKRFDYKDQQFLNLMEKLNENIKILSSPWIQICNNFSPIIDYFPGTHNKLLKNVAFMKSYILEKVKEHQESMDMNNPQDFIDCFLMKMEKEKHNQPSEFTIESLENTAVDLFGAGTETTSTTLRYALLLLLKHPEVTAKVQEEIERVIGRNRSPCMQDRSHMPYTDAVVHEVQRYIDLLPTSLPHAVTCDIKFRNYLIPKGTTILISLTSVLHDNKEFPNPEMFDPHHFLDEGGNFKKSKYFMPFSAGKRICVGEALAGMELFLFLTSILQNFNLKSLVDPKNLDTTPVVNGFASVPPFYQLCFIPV
Sequence of UniProt Q01959 (whole entry, looked up): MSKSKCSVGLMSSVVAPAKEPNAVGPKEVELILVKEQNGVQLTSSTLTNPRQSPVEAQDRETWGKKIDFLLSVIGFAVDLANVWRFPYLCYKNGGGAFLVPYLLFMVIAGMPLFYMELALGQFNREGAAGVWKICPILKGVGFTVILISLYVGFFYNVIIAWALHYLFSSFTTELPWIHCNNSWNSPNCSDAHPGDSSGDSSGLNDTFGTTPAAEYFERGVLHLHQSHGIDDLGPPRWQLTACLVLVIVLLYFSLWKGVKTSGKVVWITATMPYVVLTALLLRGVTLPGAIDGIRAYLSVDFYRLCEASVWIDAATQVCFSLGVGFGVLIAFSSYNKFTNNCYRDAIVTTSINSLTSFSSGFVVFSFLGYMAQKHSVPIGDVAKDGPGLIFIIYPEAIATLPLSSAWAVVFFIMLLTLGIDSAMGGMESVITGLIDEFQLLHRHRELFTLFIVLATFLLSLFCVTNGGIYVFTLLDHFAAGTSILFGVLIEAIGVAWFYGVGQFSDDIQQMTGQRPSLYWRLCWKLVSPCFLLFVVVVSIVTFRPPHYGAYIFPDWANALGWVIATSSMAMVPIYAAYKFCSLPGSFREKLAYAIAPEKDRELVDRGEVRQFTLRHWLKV
Sequence of UniProt P08913 (whole entry, looked up): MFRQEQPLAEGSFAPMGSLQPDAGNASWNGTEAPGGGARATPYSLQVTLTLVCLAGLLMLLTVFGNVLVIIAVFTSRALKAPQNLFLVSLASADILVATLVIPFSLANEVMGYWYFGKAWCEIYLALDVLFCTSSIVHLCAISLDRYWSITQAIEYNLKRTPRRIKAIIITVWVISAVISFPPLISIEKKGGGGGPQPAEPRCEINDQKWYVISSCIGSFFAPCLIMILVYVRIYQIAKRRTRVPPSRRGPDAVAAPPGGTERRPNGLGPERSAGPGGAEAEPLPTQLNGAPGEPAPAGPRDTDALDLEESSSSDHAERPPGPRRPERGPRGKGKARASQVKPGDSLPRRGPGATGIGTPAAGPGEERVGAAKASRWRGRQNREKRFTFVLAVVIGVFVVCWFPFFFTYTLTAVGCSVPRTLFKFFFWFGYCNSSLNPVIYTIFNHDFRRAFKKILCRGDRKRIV
Sequence of UniProt P48147 (whole entry, looked up): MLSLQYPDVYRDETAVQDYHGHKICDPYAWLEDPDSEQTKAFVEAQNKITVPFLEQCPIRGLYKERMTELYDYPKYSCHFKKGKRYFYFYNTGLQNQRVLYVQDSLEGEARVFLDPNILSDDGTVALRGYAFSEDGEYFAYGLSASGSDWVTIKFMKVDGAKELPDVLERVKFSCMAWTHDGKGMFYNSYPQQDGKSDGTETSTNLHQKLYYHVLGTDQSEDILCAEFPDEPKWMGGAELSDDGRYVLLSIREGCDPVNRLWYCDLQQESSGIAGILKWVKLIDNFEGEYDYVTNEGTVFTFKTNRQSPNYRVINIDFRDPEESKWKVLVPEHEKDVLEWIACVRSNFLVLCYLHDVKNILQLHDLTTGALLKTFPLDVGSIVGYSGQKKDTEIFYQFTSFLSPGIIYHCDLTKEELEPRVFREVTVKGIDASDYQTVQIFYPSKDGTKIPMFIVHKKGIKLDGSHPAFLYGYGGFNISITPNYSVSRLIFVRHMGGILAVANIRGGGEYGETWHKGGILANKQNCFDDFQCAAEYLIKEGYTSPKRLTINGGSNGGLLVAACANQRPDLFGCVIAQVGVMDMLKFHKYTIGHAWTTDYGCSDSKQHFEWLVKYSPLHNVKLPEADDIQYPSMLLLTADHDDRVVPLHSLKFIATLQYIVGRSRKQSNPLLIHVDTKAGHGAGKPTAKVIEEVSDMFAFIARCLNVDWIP

Structure (SMILES) | target | effect on | mode | technique | host | matrix | Ki [nM]
CCOc1ccc(C(=O)CC(SCc2ccc(Cl)cc2)C(=O)O)cc1 (stereo not shown) | PLEKHA3 | ligand displacement | – | FP | – | – | 6090
Cc1cc(Oc2ncccc2CN2CCN(c3ccccc3Br)CC2)ccc1-c1c(C)c(=O)[nH]c(=O)n1C | ADRA1B | ligand displacement | – | radioligand | – | – | 736
CCCNc1nc(I)nc2c1ncn2[C@H]1[C@H](O)[C@H](O)[C@]2(C#N)C[C@H]12 | HTR2B | ligand displacement | – | radioligand | – | – | 40
Cc1cc(Oc2ncccc2CN2CCN(C(c3ccccc3)c3ccccc3)CC2)ccc1-c1c(C)c(=O)[nH]c(=O)n1C | ADRA2A (Homo sapiens, UniProt P08913) | ligand displacement | – | radioligand | – | – | 247
CC(C)[C@@H](Nc1nc(I)nc2c1ncn2[C@H]1[C@H](O)[C@H](O)[C@]2(C#N)C[C@H]12)C1CC1 | HTR2B | ligand displacement | – | radioligand | – | – | 15.4
Cc1nn(CCc2ccccc2)c2ncc(C(=O)NCc3cccnc3)c(Cl)c12 | PREP (Homo sapiens, UniProt P48147) | enzyme activity | inhibitor | fluorescence | – | – | 18000
OC[C@@]12C[C@@H]1[C@@H](n1cnc3c(NC4CCCC4)nc(I)nc31)[C@H](O)[C@@H]2O | HTR2B | ligand displacement | – | radioligand | – | – | 28.1
COc1ccc(Cl)cc1N1CCN(Cc2cccnc2Oc2ccc(-c3c(C)c(=O)[nH]c(=O)n3C)c(C)c2)CC1 | ADRA1B | ligand displacement | – | radioligand | – | – | 821
Cc1ccc2oc(=O)cc(NCCO)c2c1 | ADRA1B | ligand displacement in cells | – | – | – | – | 17400
N#CC[C@@]12C[C@@H]1[C@@H](n1cnc3c(Nc4ccccc4)nc(I)nc31)[C@H](O)[C@@H]2O | SLC6A3 (Homo sapiens, UniProt Q01959) | ligand displacement | – | radioligand | – | – | 1200
O=C1c2ccccc2N=C2N(c3ccccc3)CCC12O (stereo not shown) | Myosin-7 (MYH7, Bos taurus, UniProt Q9BE39) | ATPase activity | inhibitor | – | – | – | 2600
COc1ccccc1C(=O)CC(SCc1ccc(Cl)cc1)C(=O)O (stereo not shown) | PLEKHA3 | ligand displacement | – | FP | – | – | 17600
N#C[C@@]12C[C@@H]1[C@@H](n1cnc3c(N[C@@H](C4CCC4)C4CC4)nc(I)nc31)[C@H](O)[C@@H]2O | HTR2B | ligand displacement | – | radioligand | – | – | 7.49
CO[C@]1(C(=O)N[C@@H](C)c2ccc(-n3cc(F)cn3)nc2)CC[C@H](c2nc(C)cc(Nc3cc(C)[nH]n3)n2)CC1 | Cytochrome P450 2C9 (CYP2C9, Homo sapiens, UniProt P11712) | enzyme activity | inhibitor | – | human | liver microsomes | 4100
CCOc1cccc(C(=O)CC(SCc2ccc(Cl)cc2)C(=O)O)c1 (stereo not shown) | PLEKHA3 | ligand displacement | – | FP | – | – | 5340
Cc1cc(Oc2ncccc2CN2CCN(c3ccccc3C)CC2)ccc1-c1c(C)c(=O)[nH]c(=O)n1C | ADRA1B | ligand displacement | – | radioligand | – | – | 1270

For quick reference, copied from above:
Structure (SMILES) | target | effect on | mode | technique | host | matrix | Ki [nM]
O=C1c2ccccc2N=C2N(c3ccccc3)CCC12O (stereo not shown) | Myosin-7 (MYH7, Bos taurus, UniProt Q9BE39) | ATPase activity | inhibitor | – | – | – | 2600
Cc1nn(CCc2ccccc2)c2ncc(C(=O)NCc3cccnc3)c(Cl)c12 | PREP (Homo sapiens, UniProt P48147) | enzyme activity | inhibitor | fluorescence | – | – | 18000
